Literature values that unrelated publications cite.
Protocols differ between the studies behind these lines.
Cell line: MDA-MB-231

O=C1NCC(Cc2ccccc2)N(CC2CCCN2CC(CC2CCCCC2)N2CC(Cc3ccc(O)cc3)N(CCc3ccccc3)C(=O)C2=O)C1=O (stereo not drawn)
IC50 (viability): > 100000 nM

CC1=C(C)C(=O)OC(C(C)(O)C2CCC3C4CC5OC56C(O)C=CC(=O)C6(C)C4CCC32C)C1 (stereo not drawn)
IC50 (cell growth): 600 nM

O=c1c2ccc(-n3cc(-c4ccccc4)nn3)cc2ncn1Cc1ccc(Br)cc1
IC50: 3210 nM

CCC(CCC(C)C1CCC2C3CCC4=CC(=O)CCC4(C)C3CCC12C)C(C)C (stereo not drawn)
IC50: 128000 nM

Cc1ccc(-n2cc(CN3CCN(C(=O)c4nc5ccccc5n4C)CC3)nn2)cc1
IC50 (cell growth): 2020 nM

Cc1ccc2c(n1)c1nc(C)ccc1c1nc3cc4ccccc4cc3nc21.[Ru+2].c1ccc(-c2cccc(-c3ccccn3)n2)nc1.c1ccncc1
EC50 (cell viability; dark): 34 µM

[Cl-].[Cl-].[Ru+2].c1ccc(-c2ccccn2)nc1.c1ccc(-c2ccccn2)nc1.c1cnc2c(c1)ccc1cccnc12
IC50 (light irradiation): > 100000 nM

Oc1cccc(-c2cccc(O)n2)n1.[Cl-].[Cl-].[Ru+2].c1cnc2c(c1)ccc1cccnc12.c1cnc2c(c1)ccc1cccnc12
IC50 (cell viability; dark): 280000 nM

CC1=C(CO)C(=O)O[C@@H]([C@@H](C)[C@H]2CC[C@H]3[C@@H]4C[C@H]5O[C@]56[C@@H](O)C=CC(=O)[C@]6(C)[C@H]4CC[C@]23C)C1
IC50 (cell growth): 40 nM

C=CC(=O)N(c1cccc2ccccc12)S(=O)(=O)c1ccc(OC)cc1
IC50 (cell growth): 2850 nM

COc1cc(Nc2nnc(-c3cc4ccccc4[nH]3)s2)cc(OC)c1OC
IC50 (cytotoxicity): 440 nM

O=C(N/N=C\c1c[nH]c2ccccc12)c1c[nH]c2ccccc12
IC50: 1000 nM

A few entries again:
Cc1ccc2c(n1)c1nc(C)ccc1c1nc3cc4ccccc4cc3nc21.[Ru+2].c1ccc(-c2cccc(-c3ccccn3)n2)nc1.c1ccncc1
EC50 (cell viability; dark): 34 µM
